Published values pooled from the literature.
Protocols differ between the studies behind these lines. Numbers after ± are the reported error.
Method: steady-state kinetics
B1: AARS2 (Homo sapiens, UniProt Q5JTZ9); chain SHRPLSSEPPAAKASAVRAAFLNFFRDRHGHRLVPSASVRPRGDPSLLFVNAGMNQFKPIFLGTVDPRSEMAGFRRVANSQKCVRAGGHHNDLEDVGRDLSHHTFFEMLGNWAFGGEYFKEEACNMAWELLTQVYGIPEERLWISYFDGDPKAGLDPDLETRDIWLSLGVPASRVLSFGPQENFWEMGDTGPCGPCTEIHYDLAGGVGAPQLVELWNLVFMQHNREADGSLQPLPQRHVDTGMGLERLVAVLQGKHSTYDTDLFSPLLNAIQQGCRAPPYLGRVGVADEGRTDTAYRVVADHIRTLSVCISDGIFPGMSGPPLVLRRILRRAVRFSMEILKAPPGFLGSLVPVVVETLGDAYPELQRNSAQIANLVSEDEAAFLASLERGRRIIDRTLRTLGPSDMFPAEVAWSLSLCGDLGLPLDMVELMLEEKGVQLDSAGLERLAQEEAQHRARQAEPVQKQGLWLDVHALGELQRQGVPPTDDSPKYNYSLRPSGSYEFGTCEAQVLQLYTEDGTAVASVGKGQRCGLLLDRTNFYAEQGGQASDRGYLVRAGQEDVLFPVARAQVCGGFILHEAVAPECLRLGDQVQLHVDEAWRLGCMAKHTATHLLNWALRQTLGPGTEQQGSHLNPEQLRLDVTTQTPLTPEQLRAVENTVQEAVGQDEAVYMEEVPLALTAQVPGLRSLDEVYPDPVRVVSVGVPVAHALDPASQAALQTSVELCCGTHLLRTGAVGDLVIIGDRQLSKGTTRLLAVTGEQAQQARELGQSLAQEVKAATERLSLGSRDVAEALRLSKDIGRLIEAVETAVMPQWQRRELLATVKMLQRRANTAIRKLQMGQAAKKTQELLERHSKGPLIVDTVSAESLSVLVKVVRQLCEQAPSTSVLLLSPQPMGKVLCACQVAQGAMPTFTAEAWALAVCSHMGGKAWGSRVVAQGTGSTTDLEAALSIAQTYALSQL
B2: protein (Trypanosoma brucei, UniProt Q382C3); chain MKRSVSKVWLNEDTPNDPYPLYAPSPLPPKRPGTIRVWVDGCFDMLHFGHANALRQARSMGDELFVGCHTDEEIIRHKGPPSMRQEERYEALRACKWVDAVIEGYPYVTRVEDMKRFEVDFVVHGDDISVDLNGRNSYQAIIDAGMFKAVRRTECISTTDLVGRMLLCVPSELLSDADKKLLDSEVARKRGPHYLTTSRKIAQFSNKLAPPVGATVVYVDGAFDLFHAGHIRFLQKARALGDYLIVGIHDDQLVRESKGEHFPIMSLNERALGVLSCRYVDDVVFGAPRGVTQEMIKILDIKIVACGTSSETRNCKGAFDVYEVPKSLNLFKVVESGSDLSTDMIVERVVKNHVVLLERQFLKHMKDSEAELRKPDVYRNVREV
B3: enzyme (Mortierella alpina, UniProt U5Y6A8); chain MAPPHVVDEQVRRRIVVEDEIQSKKQFERNYVPMDFTIKEIRDAIPAHLFIRDTTKSILHVVKDLVTIAIVFYCATFIETLPSLALRVPAWITYWIIQGTVMVGPWILAHECGHGAFSDSKTINTIFGWVLHSALLVPYQAWAMSHSKHHKGTGSMSKDVVFIPATRSYKGLPPLEKPAAEEEVLEQEHHHHEESIFAETPIYTLGALFFVLTLGWPLYLIMNFSGHEAPHWVNHFQTVAPLYEPHQRKNIFYSNCGIVAMGSILTYLSMVFSPLTVFMYYGIPYLGVNAWIVCITYLQHTDPKVPHFRDNEWNFQRGAACTIDRSFGTIVNHLHHHIGDSHQCHHMFSQMPFYNAVEATKHLKAKLGKYYIFDDTPIAKALYRNWRECKFVEDEGDVVFYKH
B4: protein F222G (Planktothrix agardhii, UniProt F5B6Z0); chain MIVNVIQKDRLKEQKLQFIRNHQQAFDVEPIYPLPLFEDFVTSIEGDCSLEASCKIESDKLIASRFLLFFEDKTQEWQKYLHQSLTFFGLVENRVGVKINYSLLQQFLGSSFDFSKVTVLSAGIDLRNNLAESSLKMHIRIKDYPEKLDKAFALSDGAADGNYLKDFVNLIGFDFYFNGKSEIEIYAEVQEDDFFKPEINNLVWQHFPKTALQPLKASSLFGTGLSKANNNPVLYYHLKNRQDLTNYFKLNDTAQRVHSFYQHQDILPYMWVGTAQKELEKTRIENIRLYYYKSFKMESN
B5: WlbA (Thermus thermophilus, UniProt Q72KX8); chain MTRFALTGLAGYIAPRHLKAIKEVGGVLVASLDPATNVGLVDSFFPEAEFFTEPEAFEAYLEDLRDRGEGVDYLSIASPNHLHYPQIRMALRLGANALSEKPLVLWPEEIARLKELEARTGRRVYTVLQLRVHPSLLALKERLGQEKGAKDVVLTYVTGRGKWYGKSWKVDEAKSGGLATNIGIHFFDLLAWLFGRALHVEVHARTPTVNAGYLELEGARVRWFLSIDPSFVPEPLRRQGKRTYRSIAVDGEEVEFSEGFTDLHTEVYRKTLAGEGFGLDEAAEAIRVAALLRTLPLSQPSPENRHPFLG
B6: Pck1 (Rattus norvegicus, UniProt P07379); chain MPPQLHNGLDFSAKVIQGSLDSLPQEVRKFVEGNAQLCQPEYIHICDGSEEEYGRLLAHMQEEGVIRKLKKYDNCWLALTDPRDVARIESKTVIITQEQRDTVPIPKSGQSQLGRWMSEEDFEKAFNARFPGCMKGRTMYVIPFSMGPLGSPLAKIGIELTDSPYVVASMRIMTRMGTSVLEALGDGEFIKCLHSVGCPLPLKKPLVNNWACNPELTLIAHLPDRREIISFGSGYGGNSLLGKKCFALRIASRLAKEEGWLAEHMLILGITNPEGKKKYLAAAFPSACGKTNLAMMNPTLPGWKVECVGDDIAWMKFDAQGNLRAINPENGFFGVAPGTSVKTNPNAIKTIQKNTIFTNVAETSDGGVYWEGIDEPLAPGVTITSWKNKEWRPQDEEPCAHPNSRFCTPASQCPIIDPAWESPEGVPIEGIIFGGRRPAGVPLVYEALSWQHGVFVGAAMRSEATAAAEHKGKVIMHDPFAMRPFFGYNFGKYLAHWLSMAHRPAAKLPKIFHVNWFRKDKNGKFLWPGFGENSRVLEWMFGRIEGEDSAKLTPIGYVPKEDALNLKGLGDVNVEELFGISKEFWEKEVEEIDKYLEDQVNADLPYEIERELRALKQRISQM
B7: enzyme K299V (Mus musculus, UniProt P08680); chain DRKSKIVQRAAPEVQEDVKTFKTDLLSTMDSTTRSHSFPSFQEPEQTEGAVPHLIQNNMTGSQAFGYDQFFRDKIMEKKQDHTYRVFKTVNRWANAYPFAQHFSEASMASKDVSVWCSNDYLGISRHPRVLQAIEETLKNHGAGAGGTRNISGTSKFHVELEQELAELHQKDSALLFSSCFVANDSTLFTLAKLLPGCEIYSDAGNHASMIQGIRNSGAAVFVFRHNDPGHLKKLLEKSDPKTPKIVAFETVHSMDGAICPLEELCDVAHQYGALTFVDEVHAVGLYGARGAGIGERDGIMHKLDIISGTLGKAFGCVGGYIASTRDLVDMVRSYAAGFIFTTSLPPMVLSGALESVRLLKGEEGQALRRAHQRNVKHMRQLLMDRGFPVIPCPSHIIPIRVGNAALNSKICDLLLSKHSIYVQAINYPTVPRGEELLRLAPSPHHSPQMMENFVEKLLLAWTEVGLPLQDVSVAACNFCHRPVHFELMSEWERSYFGNMGPQYVTTYA
B8: enzyme (Comamonas testosteroni, UniProt B7WQT1); chain MMTHEENELLCRVEGDAPMGRLMRRHWTPICLVEEVGEPDGTPVKARAFGEDLVVFRDSEGRVGVMDEYCPHRRASLVYGRNEEGGLRCLYHGWKMDVDGNVLEMASEPAASGMVDKVKHTAYPTQEWAGMVWAYMGPKETMPEFLPPAWAPTADTRVSIAKVLLPCNWAQILEGAIDSAHSSSLHSSDMVPARVDGAKATDKTWLRPSTDKAPRMQVQRTGYGFRYAALRRPLSNAAENDYVRSTVFVAPATALIPPNNLYNVANINVPMDDTNTAFYFIAWGHPSQTPETETWRKFLRQTVGVDLDQNYRPLRNEANKFWQDRNAMKAGNFTGITGFPNQDVAMWLTMGPIADRTHDRLGASDLAIVEFRKQMLDAVKAFEQGAPAIGTGVEAATPTVCSFQAIVPKTTDWRTYDAHYVWLDGQDRPEFEPSYSVKS
B9: Ma-WS/DGAT (Marinobacter nauticus); chain MTPLNPTDQLFLWLEKRQQPMHVGGLQLFSFPEGAPDDYVAQLADQLRQKTEVTAPFNQRLSYRLGQPVWVEDEHLDLEHHFRFEALPTPGRIRELLSFVSAEHSHLMDRERPMWEVHLIEGLKDRQFALYTKVHHSLVDGVSAMRMATRMLSENPDEHGMPPIWDLPCLSRDRGESDGHSLWRSVTHLLGLSGRQLGTIPTVAKELLKTINQARKDPAYDSIFHAPRCMLNQKITGSRRFAAQSWCLKRIRAVCEAYGTTVNDVVTAMCAAALRTYLMNQDALPEKPLVAFVPVSLRRDDSSGGNQVGVILASLHTDVQEAGERLLKIHHGMEEAKQRYRHMSPEEIVNYTALTLAPAAFHLLTGLAPKWQTFNVVISNVPGPSRPLYWNGAKLEGMYPVSIDMDRLALNMTLTSYNDQVEFGLIGCRRTLPSLQRMLDYLEQGLAELELNAGL
Chain of UniProt O95674 (whole entry, looked up): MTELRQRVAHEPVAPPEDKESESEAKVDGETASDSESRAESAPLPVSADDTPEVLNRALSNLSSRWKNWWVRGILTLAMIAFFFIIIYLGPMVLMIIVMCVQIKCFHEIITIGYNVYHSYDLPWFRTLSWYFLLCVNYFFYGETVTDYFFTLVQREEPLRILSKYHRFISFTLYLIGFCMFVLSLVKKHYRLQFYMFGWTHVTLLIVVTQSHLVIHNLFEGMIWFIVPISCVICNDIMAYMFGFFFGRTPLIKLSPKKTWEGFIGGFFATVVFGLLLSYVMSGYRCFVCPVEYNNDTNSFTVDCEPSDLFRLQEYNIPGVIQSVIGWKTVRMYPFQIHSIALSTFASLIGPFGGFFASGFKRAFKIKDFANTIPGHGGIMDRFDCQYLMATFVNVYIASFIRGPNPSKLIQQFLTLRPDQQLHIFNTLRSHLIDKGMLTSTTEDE
Chain of UniProt P00433 (whole entry, looked up): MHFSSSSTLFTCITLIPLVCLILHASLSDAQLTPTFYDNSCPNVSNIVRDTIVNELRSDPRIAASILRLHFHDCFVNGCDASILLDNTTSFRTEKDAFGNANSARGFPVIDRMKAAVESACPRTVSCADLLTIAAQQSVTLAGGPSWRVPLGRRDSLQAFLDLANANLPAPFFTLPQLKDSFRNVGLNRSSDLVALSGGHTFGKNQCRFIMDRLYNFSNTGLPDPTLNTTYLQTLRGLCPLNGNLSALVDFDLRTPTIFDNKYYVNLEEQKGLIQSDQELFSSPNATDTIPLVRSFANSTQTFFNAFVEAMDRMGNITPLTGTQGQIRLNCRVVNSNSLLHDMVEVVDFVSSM

B1 (AARS2)
kcat (C[C@H](N)C(=O)O; pH 8, 37 °C, KCl 20 mM, together with: ATP 4 mM): 4.65 ± 0.21 s⁻¹

B2 (protein)
kcat (Nc1ccn([C@@H]2O[C@H](COP(=O)(O)OP(=O)(O)OP(=O)(O)O)[C@@H](O)[C@H]2O)c(=O)n1; pH 7.5, together with: ethanolamine-phosphate 0.1 mM): 1.15 s⁻¹

B3 (enzyme)
kcat (CCCCC/C=C\C/C=C\C/C=C\CCCCC(=O)SCCNC(=O)CCNC(=O)[C@H](O)C(C)(C)COP(=O)(O)OP(=O)(O)OC[C@H]1O[C@@H](n2cnc3c(N)ncnc32)[C@H](O)[C@@H]1OP(=O)(O)O; pH 7.5, 28 °C): 0.367 ± 0.015 s⁻¹

CDS2 (Homo sapiens, UniProt O95674)
kcat (CCCCC/C=C\C/C=C\CCCCCCCC(=O)O[C@H](COC(=O)CCCCCCCCCCCCCCCCC)COP(=O)(O)O; pH 8, not purified): 2.9 ± 0.1 s⁻¹

B4 (protein F222G)
kcat (CC(C)=CCC/C(C)=C/COP(=O)(O)OP(=O)(O)O; together with: tri-Tyr peptide acceptor): 0.458 ± 0.0183 s⁻¹

AphC (Rhodococcus jostii, UniProt Q0S9X1)
kcat (Oc1ccc(-c2ccccc2)cc1O; pH 8, 25 °C, apparent, together with: O2): 0.344 s⁻¹

B5 (WlbA)
kcat (CC(=O)N[C@H]1[C@@H](OP(=O)(O)OP(=O)(O)OC[C@H]2O[C@@H](n3ccc(=O)[nH]c3=O)[C@H](O)[C@@H]2O)O[C@H](C(=O)O)[C@@H](O)[C@@H]1O; pH 8.5, 25 °C, together with: enzyme-bound NAD(H)): 240 ± 10 s⁻¹

B6 (Pck1)
kcat (Nc1nc2c(ncn2[C@@H]2O[C@H](COP(=O)(O)OP(=O)(O)OP(=O)(O)O)[C@@H](O)[C@H]2O)c(=O)[nH]1; pH 7.5, 25 °C, together with: OAA, GTP): 54 ± 0.2 s⁻¹

B7 (enzyme K299V)
kcat (CC(C)(COP(=O)(O)OP(=O)(O)OC[C@H]1O[C@@H](n2cnc3c(N)ncnc32)[C@H](O)[C@@H]1OP(=O)(O)O)[C@@H](O)C(=O)NCCC(=O)NCCSC(=O)CCC(=O)O; pH 7.5, 37 °C): 0.17 ± 0.002 s⁻¹

B8 (enzyme)
kcat (O=C(O)c1ccc(C(=O)O)cc1; pH 8, 25 °C, apparent): 2 ± 0.1 s⁻¹

PRXC1A (Armoracia rusticana, UniProt P00433)
kcat (CCn1c(=NN=c2sc3cc(S(=O)(=O)O)ccc3n2CC)sc2cc(S(=O)(=O)O)ccc21; apparent): 592 ± 18 s⁻¹

B9 (Ma-WS/DGAT)
kcat (CCCCCC(=O)SCCNC(=O)CCNC(=O)[C@H](O)C(C)(C)COP(=O)(O)OP(=O)(O)OC[C@H]1O[C@@H](n2cnc3c(N)ncnc32)[C@H](O)[C@@H]1OP(=O)(O)O; pH 7.5, 25 °C, NaCl 300 mM, lower limit, not saturable, apparent, together with: 1-hexanol 4 mM): > 3 s⁻¹

octaprenyl-diphosphate synthase (Bacteroides fragilis, UniProt Q5LIZ3)
kcat (C=C(C)CCO[P@@](=O)(O)OP(=O)(O)O; pH 7.6, 37 °C, together with: FPP; Triton X-100.1%; MgCl2 10 mM): 0.03 s⁻¹
